Measured values gathered from unrelated publications.
Each line is one published result; not all experiments were run side by side.

Structure (SMILES) = CC[C@H](C)[C@H](NC(=O)[C@H](Cc1ccccc1)NC(=O)[C@H](CCC(=O)O)NC(=O)[C@H](CCCCNC(=O)COCCOCCNC(=O)COCCOCCNC(=O)CC[C@H](NC(=O)CCCCCCCCCCCCCCCCC(=O)O)C(=O)O)NC(=O)[C@H](C)NC(=O)[C@H](C)NC(=O)[C@H](CCC(N)=O)NC(=O)CNC(=O)[C@H](CCC(=O)O)NC(=O)[C@H](CC(C)C)NC(=O)[C@H](Cc1ccc(O)cc1)NC(=O)[C@H](CO)NC(=O)[C@H](CO)NC(=O)[C@@H](NC(=O)[C@H](CC(=O)O)NC(=O)[C@H](CO)NC(=O)[C@@H](NC(=O)[C@H](Cc1ccccc1)NC(=O)[C@@H](NC(=O)CNC(=O)[C@H](CCC(=O)O)NC(=O)C(C)(C)NC(=O)[C@@H](N)Cc1cnc[nH]1)[C@@H](C)O)[C@@H](C)O)C(C)C)C(=O)N[C@@H](C)C(=O)N[C@@H](Cc1c[nH]c2ccccc12)C(=O)N[C@@H](CC(C)C)C(=O)N[C@H](C(=O)N[C@@H](CCCNC(=N)N)C(=O)NCC(=O)N[C@@H](CCCNC(=N)N)C(=O)NCC(=O)O)C(C)C; test = population PK model; test system = human; conditions = subcutaneous, reference subject; measurement = absorption rate constant; result = 0.0253 h⁻¹
Structure (SMILES) = CS(=O)(=O)n1cc2c(n1)CN([C@H]1CO[C@H](c3cc(F)ccc3F)[C@@H](N)C1)C2; test system = healthy male human, plasma; conditions = oral, 12.5 mg, fasted, geometric mean; measurement = AUC(0-24h); result = 4.2 µM·h
Structure (SMILES) = CCN(CC)CCNC(=O)c1c(C)[nH]c(/C=C2\C(=O)Nc3ccc(F)cc32)c1C; test system = human, plasma; conditions = oral, 20 mg/m2, day 7; measurement = median trough plasma concentration; result = 35.9 ng/mL
Structure (SMILES) = O=C(N/N=C/c1ccc([N+](=O)[O-])o1)c1ccc(O)cc1; test = cytochrome c release, ELISA; test system = BALB/cByJ female mouse liver mitochondria; conditions = 30 min; how to read = reference: alamethicin maximal release; measurement = EC20; result = > 400 µM
Structure (SMILES) = CC(C)NC[C@@H](C(=O)N1CCN(c2ncnc3c2[C@H](C)C[C@H]3O)CC1)c1ccc(Cl)cc1; test system = human, hepatic impairment Healthy (Child-Pugh), plasma; conditions = oral, 100 mg single, geometric mean; measurement = Cmax; result = 45.3 ng/mL
Structure (SMILES) = CCCC[C@H](NC(=O)CN1CCN(CC(=O)O)CCN(CC(=O)O)CCN(CC(=O)O)CC1)C(=O)N[C@H]1CC(=O)NCCCC[C@@H](C(N)=O)NC(=O)[C@H](Cc2c[nH]c3ccccc23)NC(=O)[C@H](CCCNC(=N)N)NC(=O)[C@@H](Cc2ccccc2)NC(=O)[C@H](Cc2c[nH]cn2)NC1=O [indium-111 labelled]; test system = B16/F1 melanoma C57 mice, tumour; conditions = 4 h; how to read = reference: 99mTc(CO)3-pz-βAla-Nle-cyclo[Asp-His-D-Phe-Arg-Trp-Lys]-NH2; measurement = tumour uptake ratio; result = 1.5
Structure (SMILES) = O=C(c1ccc(-n2nc(C(F)(F)F)c3c2CCCC3)cc1)N1CCCC1; test system = rat; conditions = oral, 0.3 mg/kg, 30 min; measurement = brain concentration; result = 37 ng/g
Structure (SMILES) = CS(=O)(=O)n1cc2c(n1)CN([C@H]1CO[C@H](c3cc(F)ccc3F)[C@@H](N)C1)C2; test system = healthy Japanese men, plasma; conditions = oral, 1 mg once weekly, day 15; measurement = Ctrough; result = 4.56 nM
Structure (SMILES) = C[C@]12CC[C@@H]3c4ccc(O)cc4CC[C@H]3[C@@H]1C[C@@H](O)[C@@H]2O; test = GC-MS; test system = breast cancer women on NSAI, serum; conditions = vaginal, 0.03 mg daily, 24 h, day 28; measurement = mean serum concentration; result = 0 ng/mL
Structure (SMILES) = Cc1cc(C)c2c(c1)[C@@H](N(Cc1cc(C(F)(F)F)cc(C(F)(F)F)c1)c1nnn(C)n1)CCCN2C[C@H]1CC[C@H](C(=O)O)CC1; test system = human, dyslipidemic patients, plasma; conditions = oral, 30 mg daily, monotherapy, geometric mean; measurement = AUC(0-tau) at steady state; result = 2300 ng·h/mL
Structure (SMILES) = Nc1nc2c(ccc3ccccc32)s1; test system = mouse, plasma; conditions = intraperitoneal, 10 mg/kg, 4 h; measurement = concentration; result = 1400 nM
Structure (SMILES) = O=C(O)[C@H](c1ccccc1Cl)N1CCc2sccc2C1; test = HPLC-MS/MS; test system = feline citrate plasma; conditions = 72 h, 4 °C, storage stability; measurement = deviation from nominal; result = 7%
Structure (SMILES) = OC[C@H]1O[C@@](CO)(O[C@H]2O[C@H](CO)[C@@H](O)[C@H](O)[C@H]2O)[C@@H](O)[C@@H]1O; test = mitochondrial swelling; test system = BALB/cByJ female mouse liver mitochondria; conditions = 30 min, together with: succinate + rotenone; how to read = reference: CaCl2 maximal swelling; measurement = EC20; result = > 800 µM
Structure (SMILES) = Cn1c(-c2ccc(C(N)=O)cc2F)nnc1C(C)(C)Oc1c(F)cc(Cl)cc1F; test system = healthy young Japanese subjects, plasma; conditions = oral, 50 mg once daily, day 18, 14 days dosing; measurement = AUC(0-tau) median; result = 7620 ng·h/mL
Structure (SMILES) = Clc1ccccc1C(c1ccccc1)(c1ccccc1)n1ccnc1; test = cytochrome c release, ELISA; test system = BALB/cByJ female mouse liver mitochondria; conditions = 30 min; how to read = reference: alamethicin maximal release; measurement = EC20; result = > 800 µM
Structure (SMILES) = O=C(O)c1cc(O)ccc1O; test system = human, fasted baseline, cerebrospinal fluid; measurement = median concentration; result = 35.3 nM

A few entries again:
Structure (SMILES) = C[C@]12CC[C@@H]3c4ccc(O)cc4CC[C@H]3[C@@H]1C[C@@H](O)[C@@H]2O; test = GC-MS; test system = breast cancer women on NSAI, serum; conditions = vaginal, 0.03 mg daily, 24 h, day 28; measurement = mean serum concentration; result = 0 ng/mL
